Results of several laboratories.
Each numbered part is a random draw from the data of one study; scales do not carry over between parts. Changes are numbered by the printed parent chain.

Study 1
Target: Sal-like protein 4, full length isoform A (SALL4, Homo sapiens, UniProt Q9UJQ4, residues 1-1053)
Sequence of UniProt Q9UJQ4 (whole entry, looked up): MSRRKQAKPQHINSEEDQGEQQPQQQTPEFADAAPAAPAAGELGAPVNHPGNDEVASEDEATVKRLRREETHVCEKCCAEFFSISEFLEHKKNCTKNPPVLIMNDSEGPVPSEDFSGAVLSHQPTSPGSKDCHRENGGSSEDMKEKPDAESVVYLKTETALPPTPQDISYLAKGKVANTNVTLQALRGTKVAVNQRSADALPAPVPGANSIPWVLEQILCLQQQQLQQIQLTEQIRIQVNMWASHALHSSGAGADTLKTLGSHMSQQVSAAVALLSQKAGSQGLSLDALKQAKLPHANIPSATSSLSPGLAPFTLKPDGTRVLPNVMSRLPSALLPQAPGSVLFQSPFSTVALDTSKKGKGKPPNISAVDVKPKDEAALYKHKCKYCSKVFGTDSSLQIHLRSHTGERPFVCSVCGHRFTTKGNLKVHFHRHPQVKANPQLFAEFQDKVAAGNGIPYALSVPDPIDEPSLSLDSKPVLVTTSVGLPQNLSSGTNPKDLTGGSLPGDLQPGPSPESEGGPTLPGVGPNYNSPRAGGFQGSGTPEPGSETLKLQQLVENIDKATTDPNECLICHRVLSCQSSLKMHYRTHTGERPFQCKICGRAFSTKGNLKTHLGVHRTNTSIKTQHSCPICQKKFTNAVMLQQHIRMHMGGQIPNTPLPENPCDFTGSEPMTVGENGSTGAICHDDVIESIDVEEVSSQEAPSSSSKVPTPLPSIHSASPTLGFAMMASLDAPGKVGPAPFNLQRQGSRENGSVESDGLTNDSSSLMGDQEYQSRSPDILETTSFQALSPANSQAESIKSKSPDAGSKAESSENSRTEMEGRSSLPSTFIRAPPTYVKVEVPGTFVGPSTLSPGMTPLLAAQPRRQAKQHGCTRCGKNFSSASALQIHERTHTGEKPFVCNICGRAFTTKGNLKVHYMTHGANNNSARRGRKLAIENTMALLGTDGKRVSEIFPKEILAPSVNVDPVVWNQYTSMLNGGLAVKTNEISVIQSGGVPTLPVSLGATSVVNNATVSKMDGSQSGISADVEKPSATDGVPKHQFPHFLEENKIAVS
Technique: universal PBM
Form: double-stranded DNA, one strand shown
Medium: in vitro
Tested at: 600 nM
Notes: 8-mer, flanks averaged, mean of replicates
Reading: higher = stronger binding
| Oligonucleotide | E-score |
| --- | --- |
| AAGTTCAG | 0.0478 |
| CGGATCGA | -0.213 |
| CGCACCCG | -0.336 |
| ATGGGATA | 0.0974 |
| AGACCACC | -0.206 |
| AGCCAGAG | -0.214 |
| CAACTATG | 0.136 |
| CCCCAAAA | 0.0893 |
| AGCACCAT | -0.0978 |
| AAATACAA | 0.4 |
| CGTGAATA | 0.213 |
| ATTCAGCC | -0.0109 |
| GGTGCCTA | -0.227 |
| ACGCTGTC | -0.268 |
| ACCGGTCC | -0.307 |
| TGCCACCA | -0.196 |

Study 2
Target: Interferon regulatory factor 5, full length, phosphomimetic (IRF5, Homo sapiens, UniProt Q13568-2, residues 1-514, S451D/S453D/S456D/S462D)
Technique: protein-binding microarray
Form: double-stranded DNA, one strand shown
Medium: in vitro
Tested at: 940 nM top
Notes: 60-bp whole probe
With: salmon DNA 0.4 mg/ml
Baseline: random background probes
Reading: higher = stronger binding
All sequences stand within: GCCTAGCAC … GTCTTGATTCGCTTGACGCTGCTG
| Oligonucleotide | fitted relative affinity [z-score] |
| --- | --- |
| GCCGATTTCAGTCTCGAGACGTGCTAG | 2.17 |
| GACGATATCAGTATCGAGATGTGCTAG | 1.38 |
| TTAGGTTTCTGTCTCGGTTAGTGCTAG | 8.31 |
| GACGGTTTCGCACTGGGGACGTGCTAG | 4.02 |
| TTAGGTATCGGTCTCGGTTAGTGCTAG | 10 |
| TTACGTTTCGGTTTCGGTTAGTGCTAG | 11.9 |
| TCACATGTTTTTTTCTAACTGTGCTAG | 1.16 |
| GACGGTTTCTACACTGGGGACGTGCTA | 1.92 |
| TTAGATTTCAGTTCCGGTTAGTGCTAG | 2.71 |
| GGTCTTTCCACTTTCTTTTGGTGCTAG | 1.96 |
| TCACTTTCTGTTTTCTCACTGTGCTAG | 5.6 |
| GACGGTTTCGTGTATCGGGACGTGCTA | 5.53 |
| TGAGATATCGGGACTGGATTAGTGCTA | -0.112 |
| TTCTGTATGGGCATTTTTCTAGTGCTA | 0.273 |
| TTCGGTTTCGGGACTGGGTTAGTGCTA | 7.76 |
| GACGAGCTGAGTCTCGAGACGTGCTAG | 0.639 |
| GACGAACTGCGTATCGAGACGTGCTAG | 0.18 |
| GACGGTCTCCTTTTCCTGAGGTGCTAG | 0.327 |
| GACGGTTGCGGACTGGGGACGTGCTAG | 0.0289 |

Study 3
Target: Prothrombin, mature alpha-thrombin (F2, Homo sapiens, UniProt P00734)
Technique: aptamer microarray, sandwich
Form: DNA with 2'F-ANA
Medium: in vitro
Tested at: 200 nM
Notes: whole 15-mer aptamer, many near background
With: Cy3 exosite-II aptamer, 400 nM
Reading: higher = stronger binding
Oligonucleotide: GGTTGGTGTGGTTGG
| Modification | mean fluorescence intensity |
| --- | --- |
| 2'F-ANA at 1 2 3 4 5 6 11 12 13 14 15 | 56.1 a.u. |
| 2'F-ANA at 6 9 11 13 14 15 | 136 a.u. |
| 2'F-ANA at 1 2 6 9 10 11 15 | 54.7 a.u. |
| 2'F-ANA at 1 2 4 6 10 | 118 a.u. |
| 2'F-ANA at 1 2 3 6 7 10 | 64.8 a.u. |
| 2'F-ANA at 2 5 6 8 9 14 | 61.3 a.u. |
| 2'F-ANA at 1 3 4 5 8 9 12 14 15 | 48.3 a.u. |
| 2'F-ANA at 2 8 10 11 12 14 | 85.2 a.u. |
| 2'F-ANA at 1 2 3 4 7 11 12 15 | 294 a.u. |
| 2'F-ANA at 1 2 5 6 7 12 13 15 | 83.5 a.u. |
| 2'F-ANA at 5 9 10 11 12 13 14 | 45.7 a.u. |
| 2'F-ANA at 2 3 7 8 13 14 | 488 a.u. |
| 2'F-ANA at 11 15 | 487 a.u. |
| 2'F-ANA at 2 4 5 6 7 9 11 14 | 48.2 a.u. |
| 2'F-ANA at 1 2 4 5 8 9 13 14 15 | 54.8 a.u. |
| 2'F-ANA at 2 3 4 5 8 10 11 12 14 | 50.9 a.u. |

Study 4
Target: ABI1, truncated, D143A, DHFR fusion (Arabidopsis thaliana)
Technique: DHFR PCA, deep sequencing
Medium: yeast
Notes: methotrexate growth selection, single substitutions
With: (+)-ABA 0.0091 µM
Baseline: wild-type fitted maximum
Reading: higher = stronger binding
Parent: PYL1, truncated, DHFR fusion (Arabidopsis thaliana); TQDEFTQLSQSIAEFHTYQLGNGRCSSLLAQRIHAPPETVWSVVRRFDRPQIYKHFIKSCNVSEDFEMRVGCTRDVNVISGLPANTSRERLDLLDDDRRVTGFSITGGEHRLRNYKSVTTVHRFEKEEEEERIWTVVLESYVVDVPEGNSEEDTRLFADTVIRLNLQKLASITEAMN
| Change | relative binding score |
| --- | --- |
| E89S | 1.69% |
| R69H | 6.25% |
| A158H | 36.3% |
| T6N | 38.1% |
| L112Q | 2.93% |
| E64Y | 4.79% |
| L138H | 6.02% |
| H34E | 40.7% |
| E125S | 47.7% |
| T154V | 42.6% |
| V100N | -13.5% |
| F66R | 3.55% |
| D92P | -2.78% |
| L28F | 2.07% |
| V136C | -3.11% |
| V161I | 57.3% |
| S26Y | 5.16% |
| D159Y | 5.37% |

Study 5
Target: Histone acetyltransferase KAT6A, both winged helices, GST fusion (KAT6A, Homo sapiens, UniProt Q92794, residues 1-181)
Technique: protein binding microarray
Form: double-stranded DNA, one strand shown
Medium: in vitro
Tested at: not given
Notes: 8-mer, flanks averaged, mean of 2 arrays, mostly near background
Baseline: not given
Reading: higher = stronger binding
Construct (chain): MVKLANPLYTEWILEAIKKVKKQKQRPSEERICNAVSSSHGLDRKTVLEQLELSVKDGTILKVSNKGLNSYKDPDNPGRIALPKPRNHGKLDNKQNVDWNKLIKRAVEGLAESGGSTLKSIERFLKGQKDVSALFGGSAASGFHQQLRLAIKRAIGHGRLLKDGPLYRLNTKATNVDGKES
| Oligonucleotide | E-score |
| --- | --- |
| GAAATCAC | 0.0505 |
| GCTAGACA | 0.158 |
| GTTAGCTA | -0.0962 |
| CAGAGGAA | -0.121 |
| TCGCTACA | 0.0568 |
| CAAATAGA | -0.0801 |
| CTTCGCTC | 0.0885 |
| ATTGCGCG | 0.381 |
| GCCACCCC | -0.038 |
| AAATTCGA | -0.183 |
| AATGGTTC | 0.138 |
| ACCCGGAG | 0.0621 |
| GAGAATGA | -0.126 |
| ACCTACTC | -0.165 |
| GACACGTA | -0.0275 |
| CCCAGAAC | -0.142 |
| TACTCTGA | -0.0307 |
| CGTATAGC | 0.156 |
| TAGACTGA | 0.0324 |

Study 6
Target: CCND3, cyclin fold, Cln2 fusion (human)
Technique: yeast growth competition, sequencing
Medium: yeast
Notes: weak parent motif
Baseline: not given
Reading: higher = stronger binding
Parent: MASTL docking peptide (human); PMIAKNLMCELDE
| Change | normalised enrichment score |
| --- | --- |
| A4R | 0.412 |
| K5A | 0.0511 |
| K5Y | -0.217 |
| N6K | -0.0495 |
| D12M | 0.0575 |
| L11W | 0.266 |
| M2V | -0.0367 |
| E10H | 0.0898 |
| I3L | 0.0671 |
| A4D | -0.128 |
| M8P | 0.0173 |
| L7E | 0.266 |
| L7D | -0.083 |
| D12A | 0.0344 |
| C9Q | -0.109 |
| E10P | 0.0375 |
| K5L | -0.144 |
| L7V | -0.489 |
| D12L | 0.18 |
| L7I | -0.035 |
| A4H | 0.113 |
| N6R | 0.285 |
| A4W | 0.288 |
| E10S | 0.0417 |
| M8T | -0.124 |

Further values, each from its own experiment
| Molecule | target | test | test system | setting | how to read | endpoint | value |
| --- | --- | --- | --- | --- | --- | --- | --- |
| PhoQ, residues 284 288 289 292 302 303 AGHLVA | PhoP, residues 12 14 15 18 19 IQFRS (Escherichia coli, UniProt P23836) | Sort-seq, refers to: YFP reporter | E. coli | PhoQ-PhoP variant library, with: 10 µM Mg2+ | baseline: high Mg2+ state, higher = stronger signaling | fold induction | 13.7 |

Excerpt of the above (study 2):
| Oligonucleotide | fitted relative affinity [z-score] |
| --- | --- |
| GCCGATTTCAGTCTCGAGACGTGCTAG | 2.17 |
| GACGATATCAGTATCGAGATGTGCTAG | 1.38 |
| TTAGGTTTCTGTCTCGGTTAGTGCTAG | 8.31 |
| GACGGTTTCGCACTGGGGACGTGCTAG | 4.02 |
| TTAGGTATCGGTCTCGGTTAGTGCTAG | 10 |
| TTACGTTTCGGTTTCGGTTAGTGCTAG | 11.9 |
| TCACATGTTTTTTTCTAACTGTGCTAG | 1.16 |
| GACGGTTTCTACACTGGGGACGTGCTA | 1.92 |
| TTAGATTTCAGTTCCGGTTAGTGCTAG | 2.71 |
| GGTCTTTCCACTTTCTTTTGGTGCTAG | 1.96 |
| TCACTTTCTGTTTTCTCACTGTGCTAG | 5.6 |
| GACGGTTTCGTGTATCGGGACGTGCTA | 5.53 |
| TGAGATATCGGGACTGGATTAGTGCTA | -0.112 |
| TTCTGTATGGGCATTTTTCTAGTGCTA | 0.273 |
| TTCGGTTTCGGGACTGGGTTAGTGCTA | 7.76 |
| GACGAGCTGAGTCTCGAGACGTGCTAG | 0.639 |
| GACGAACTGCGTATCGAGACGTGCTAG | 0.18 |
